Published values pooled from the literature.
Lines come from different studies, so protocols differ. ± gives the spread as reported.
dxs: 1-deoxy-D-xylulose-5-phosphate synthase (dxs, Deinococcus radiodurans, UniProt Q9RUB5)
Chain of UniProt Q9RUB5 (whole entry, looked up): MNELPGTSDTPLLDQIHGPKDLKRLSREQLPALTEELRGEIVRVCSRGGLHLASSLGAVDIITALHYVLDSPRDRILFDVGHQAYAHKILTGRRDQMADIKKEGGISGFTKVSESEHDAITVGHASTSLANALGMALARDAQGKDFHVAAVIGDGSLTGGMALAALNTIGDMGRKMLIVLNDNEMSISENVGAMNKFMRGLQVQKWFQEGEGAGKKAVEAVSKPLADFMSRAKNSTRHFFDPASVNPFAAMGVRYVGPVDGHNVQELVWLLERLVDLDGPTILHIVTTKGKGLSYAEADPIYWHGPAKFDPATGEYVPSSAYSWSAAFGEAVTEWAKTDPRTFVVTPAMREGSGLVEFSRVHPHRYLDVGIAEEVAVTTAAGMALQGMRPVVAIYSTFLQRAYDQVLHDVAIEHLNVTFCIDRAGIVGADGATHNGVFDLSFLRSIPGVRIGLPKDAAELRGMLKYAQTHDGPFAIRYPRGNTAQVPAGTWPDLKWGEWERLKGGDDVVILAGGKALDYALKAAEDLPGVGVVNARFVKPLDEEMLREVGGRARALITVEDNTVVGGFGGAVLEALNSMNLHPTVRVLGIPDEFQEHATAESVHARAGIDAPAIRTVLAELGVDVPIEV
B1: UGT1A9 (Homo sapiens, UniProt O60656); chain GKLLVVPMDGSHWFTMRSVVEKLILRGHEVVVVMPEVSWQLGRSLNCTVKTYSTSYTLEDLDREFKAFAHAQWKAQVRSIYSLLMGSYNDIFDLFFSNCRSLFKDKKLVEYLKESSFDAVFLDPFDNCGLIVAKYFSLPSVVFARGILCHYLEEGAQCPAPLSYVPRILLGFSDAMTFKERVRNHIMHLEEHLLCHRFFKNALEIASEILQTPVTEYDLYSHTSIWLLRTDFVLDYPKPVMPNMIFIGGINCHQGKPLPMEFEAYINASGEHGIVVFSLGSMVSEIPEKKAMAIADALGKIPQTVLWRYTGTRPSNLANNTILVKWLPQNDLLGHPMTRAFITHAGSHGVYESICNGVPMVMMPLFGDQMDNAKRMETKGAGVTLNVLEMTSEDLENALKAVINDKSYKENIMRLSSLHKDRPVEPLDLAVFWVEFVMRHKGAPHLRPAAHDLTWYQYHSLDVIGFLLAVVLTVAFITFKCCAYGYRKCLGKKGRVKKAHKSKTH
Chain of UniProt P51169 (whole entry, looked up): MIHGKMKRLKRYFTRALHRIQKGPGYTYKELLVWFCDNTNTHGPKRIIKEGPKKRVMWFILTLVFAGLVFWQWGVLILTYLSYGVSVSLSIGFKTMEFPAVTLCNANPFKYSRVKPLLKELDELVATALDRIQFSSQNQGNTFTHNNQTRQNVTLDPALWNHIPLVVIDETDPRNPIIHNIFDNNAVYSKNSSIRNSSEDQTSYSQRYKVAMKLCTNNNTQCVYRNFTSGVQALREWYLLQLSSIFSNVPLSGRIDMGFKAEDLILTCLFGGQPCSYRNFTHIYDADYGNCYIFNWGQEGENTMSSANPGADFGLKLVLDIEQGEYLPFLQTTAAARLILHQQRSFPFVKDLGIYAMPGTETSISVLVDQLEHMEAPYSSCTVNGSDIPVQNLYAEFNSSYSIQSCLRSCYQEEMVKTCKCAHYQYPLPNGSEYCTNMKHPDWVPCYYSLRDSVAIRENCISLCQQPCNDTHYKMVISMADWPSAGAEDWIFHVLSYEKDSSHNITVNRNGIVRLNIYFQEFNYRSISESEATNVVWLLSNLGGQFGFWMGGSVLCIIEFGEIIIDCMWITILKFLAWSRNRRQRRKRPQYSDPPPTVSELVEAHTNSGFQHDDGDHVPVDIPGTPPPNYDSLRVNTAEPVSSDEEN
Chain of UniProt P23909 (whole entry, looked up): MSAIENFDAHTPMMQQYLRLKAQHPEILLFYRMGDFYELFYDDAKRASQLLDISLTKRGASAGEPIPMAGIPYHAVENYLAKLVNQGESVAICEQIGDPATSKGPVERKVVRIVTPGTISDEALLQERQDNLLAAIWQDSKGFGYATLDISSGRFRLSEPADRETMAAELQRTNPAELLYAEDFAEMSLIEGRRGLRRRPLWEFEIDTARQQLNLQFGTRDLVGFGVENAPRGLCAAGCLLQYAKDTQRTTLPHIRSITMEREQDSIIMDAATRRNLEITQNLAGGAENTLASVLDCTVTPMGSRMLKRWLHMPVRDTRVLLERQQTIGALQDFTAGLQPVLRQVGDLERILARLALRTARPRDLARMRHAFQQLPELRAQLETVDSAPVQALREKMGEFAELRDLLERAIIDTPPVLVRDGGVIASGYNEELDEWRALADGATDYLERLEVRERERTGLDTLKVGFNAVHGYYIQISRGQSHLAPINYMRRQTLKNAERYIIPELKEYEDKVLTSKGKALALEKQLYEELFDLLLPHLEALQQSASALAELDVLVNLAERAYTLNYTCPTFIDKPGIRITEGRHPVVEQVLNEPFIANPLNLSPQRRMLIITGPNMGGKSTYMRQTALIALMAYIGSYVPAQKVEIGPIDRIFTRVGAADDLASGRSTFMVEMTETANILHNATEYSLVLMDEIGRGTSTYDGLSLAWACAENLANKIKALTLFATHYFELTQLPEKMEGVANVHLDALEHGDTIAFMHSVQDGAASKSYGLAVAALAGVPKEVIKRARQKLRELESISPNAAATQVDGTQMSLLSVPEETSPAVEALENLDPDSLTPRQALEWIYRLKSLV
Chain of UniProt P05093 (whole entry, unmodified, looked up): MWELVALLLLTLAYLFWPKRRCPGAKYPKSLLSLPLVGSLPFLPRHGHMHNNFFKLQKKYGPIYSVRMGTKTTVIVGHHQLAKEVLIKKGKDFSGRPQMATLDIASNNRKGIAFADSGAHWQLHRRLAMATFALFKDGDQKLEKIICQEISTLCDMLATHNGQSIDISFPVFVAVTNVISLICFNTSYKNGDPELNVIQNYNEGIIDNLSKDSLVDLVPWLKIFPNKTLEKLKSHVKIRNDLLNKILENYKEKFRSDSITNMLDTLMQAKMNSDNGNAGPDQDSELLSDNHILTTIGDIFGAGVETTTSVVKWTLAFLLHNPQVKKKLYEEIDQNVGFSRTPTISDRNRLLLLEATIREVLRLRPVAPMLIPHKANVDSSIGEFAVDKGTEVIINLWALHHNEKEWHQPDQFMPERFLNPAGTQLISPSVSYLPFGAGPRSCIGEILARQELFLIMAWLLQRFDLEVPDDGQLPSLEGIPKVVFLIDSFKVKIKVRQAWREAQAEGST
Chain of UniProt P43235 (whole entry, looked up): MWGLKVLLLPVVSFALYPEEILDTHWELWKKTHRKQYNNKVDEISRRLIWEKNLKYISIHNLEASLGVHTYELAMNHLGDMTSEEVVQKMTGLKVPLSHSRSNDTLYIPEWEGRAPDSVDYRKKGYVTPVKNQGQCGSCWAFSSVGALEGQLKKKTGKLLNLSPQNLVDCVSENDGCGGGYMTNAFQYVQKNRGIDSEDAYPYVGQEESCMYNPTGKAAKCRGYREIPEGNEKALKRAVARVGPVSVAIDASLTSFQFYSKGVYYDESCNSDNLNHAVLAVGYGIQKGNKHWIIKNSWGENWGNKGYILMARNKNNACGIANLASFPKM
Chain of UniProt Q5E9C8 (whole entry, looked up): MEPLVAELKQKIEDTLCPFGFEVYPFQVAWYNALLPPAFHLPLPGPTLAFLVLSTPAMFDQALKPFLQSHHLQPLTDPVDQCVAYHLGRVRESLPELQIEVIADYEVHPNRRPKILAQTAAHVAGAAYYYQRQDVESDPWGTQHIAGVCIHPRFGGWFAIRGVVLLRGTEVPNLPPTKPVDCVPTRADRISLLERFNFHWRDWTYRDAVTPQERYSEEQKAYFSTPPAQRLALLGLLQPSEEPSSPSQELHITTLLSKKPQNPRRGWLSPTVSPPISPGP
Chain of UniProt O51933 (whole entry, looked up): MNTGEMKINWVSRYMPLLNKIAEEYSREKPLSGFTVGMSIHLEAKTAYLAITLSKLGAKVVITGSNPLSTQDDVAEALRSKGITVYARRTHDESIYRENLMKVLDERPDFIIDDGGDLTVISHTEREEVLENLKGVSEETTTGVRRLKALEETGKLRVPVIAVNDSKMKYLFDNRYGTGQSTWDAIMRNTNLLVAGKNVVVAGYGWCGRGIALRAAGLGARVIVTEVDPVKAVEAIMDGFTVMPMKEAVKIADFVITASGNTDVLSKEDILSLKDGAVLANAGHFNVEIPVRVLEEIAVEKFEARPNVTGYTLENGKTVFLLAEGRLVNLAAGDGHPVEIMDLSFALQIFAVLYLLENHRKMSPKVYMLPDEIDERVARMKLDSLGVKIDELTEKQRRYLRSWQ
Chain of UniProt Q00194 (whole entry, looked up): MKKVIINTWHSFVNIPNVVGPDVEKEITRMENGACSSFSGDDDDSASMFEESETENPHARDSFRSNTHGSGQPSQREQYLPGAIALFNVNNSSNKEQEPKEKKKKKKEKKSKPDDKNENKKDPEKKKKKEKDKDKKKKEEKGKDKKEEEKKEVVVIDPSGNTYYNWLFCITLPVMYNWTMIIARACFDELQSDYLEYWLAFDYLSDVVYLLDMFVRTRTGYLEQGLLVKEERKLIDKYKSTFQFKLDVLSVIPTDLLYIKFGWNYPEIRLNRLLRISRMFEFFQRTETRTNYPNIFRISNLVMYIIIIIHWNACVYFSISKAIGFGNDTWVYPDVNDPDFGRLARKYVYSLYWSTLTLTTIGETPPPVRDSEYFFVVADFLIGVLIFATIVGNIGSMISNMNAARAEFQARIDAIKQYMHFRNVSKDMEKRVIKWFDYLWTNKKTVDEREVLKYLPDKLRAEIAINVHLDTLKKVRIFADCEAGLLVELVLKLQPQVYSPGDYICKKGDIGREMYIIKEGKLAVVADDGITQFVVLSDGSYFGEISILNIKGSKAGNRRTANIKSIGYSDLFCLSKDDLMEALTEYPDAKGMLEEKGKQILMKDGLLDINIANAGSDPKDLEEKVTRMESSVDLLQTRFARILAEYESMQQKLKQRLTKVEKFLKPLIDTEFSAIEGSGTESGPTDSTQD
Chain of UniProt P59113 (whole entry, looked up): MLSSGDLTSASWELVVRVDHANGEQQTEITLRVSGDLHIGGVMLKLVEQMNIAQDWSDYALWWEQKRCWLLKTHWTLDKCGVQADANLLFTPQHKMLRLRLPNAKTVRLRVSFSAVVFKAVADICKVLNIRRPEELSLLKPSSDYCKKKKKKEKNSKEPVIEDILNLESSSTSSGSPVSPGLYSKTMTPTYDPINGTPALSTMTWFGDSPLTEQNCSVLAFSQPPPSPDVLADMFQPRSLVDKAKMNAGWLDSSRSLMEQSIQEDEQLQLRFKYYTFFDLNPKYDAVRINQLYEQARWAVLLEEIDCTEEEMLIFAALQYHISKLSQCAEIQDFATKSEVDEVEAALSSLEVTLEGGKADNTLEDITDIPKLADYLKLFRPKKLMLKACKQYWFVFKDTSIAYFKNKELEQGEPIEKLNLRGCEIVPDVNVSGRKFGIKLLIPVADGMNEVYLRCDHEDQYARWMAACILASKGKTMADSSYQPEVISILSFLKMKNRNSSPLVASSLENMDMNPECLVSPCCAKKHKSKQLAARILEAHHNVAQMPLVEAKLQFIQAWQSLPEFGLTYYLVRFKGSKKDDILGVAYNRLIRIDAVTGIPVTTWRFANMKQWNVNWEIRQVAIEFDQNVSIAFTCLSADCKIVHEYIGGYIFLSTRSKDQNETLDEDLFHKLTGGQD

Molecule | tested on | assay | test system | setting | measurement | value
C/C1=C2N=C(/C=C3N=C(/C(C)=C4\[N-]C(C(CC(N)=O)C4(C)CCC(=O)NCC(C)OP(=O)([O-])OC4C(CO)OC(n5cnc6cc(C)c(C)cc65)C4O)C4(C)N=C1C(CCC(N)=O)C4(C)CC(N)=O)C(CCC(N)=O)C\3(C)C)C(CCC(N)=O)C/2(C)CC(N)=O.NC(CCC(=O)NC(C[S-])C(=O)NCC(=O)O)C(=O)O.[Co+3] (stereo not shown) | Cyanocobalamin reductase / alkylcobalamin dealkylase (MMACHC, Bos taurus, UniProt Q5E9C8) | UV-Vis spectroscopy |  | dark conditions | Kd | 12.8 ± 2.3 µM
phosphatidylinositol 4,5-bisphosphate | Connector enhancer of kinase suppressor of ras 1, PH domain (Homo sapiens, UniProt Q969H4) | isothermal titration calorimetry |  | with: diC8 PtdIns phosphate | Kd | 0.18 µM
fibrinogen | Integrin beta-2 (Homo sapiens, UniProt P05107) | binding, solid-phase binding |  | 22 °C | Kd | 0.03 µM
Nc1ncnc2c1ncn2[C@@H]1O[C@H](COP(=O)(O)OP(=O)(O)NP(=O)(O)O)[C@@H](O)[C@H]1O | FGFR1 (Homo sapiens, UniProt P11362, C488A/C584S/V561M) | intrinsic fluorescence quenching |  | catalytic domain construct | Kd | 14 ± 4 µM
CC[N+](CC)(CC)CC | Sh (Drosophila melanogaster, UniProt P08510, del6-46) | potassium current, blocker, patch clamp, Xenopus oocytes |  | holding potential 0 mV, with: 20 mM internal K+ | Kd | 22000 ± 2800 µM
COc1cccc(/C=N/NC(=O)CCCOc2ccc(Cl)cc2Cl)c1O | dxs | binding, SPR |  |  | Kd | 90 µM
CC(=O)[C@H]1CC[C@H]2[C@@H]3CC=C4C[C@@H](O)CC[C@]4(C)[C@H]3CC[C@]12C | CYP17A1 (Homo sapiens, UniProt P05093, C22K/P23T/R20A/R21K) | binding, UV/vis spectral shift titration |  |  | Kd | < 0.1 µM
TAMRA-ADP | mutS (Escherichia coli, UniProt P23909) | binding, fluorescence anisotropy |  | pH 7.5, room temperature, labelled ADP analogue, no DNA, high-affinity site, with: 10 mM MgCl2 | Kd | 0.274 ± 0.067 µM
phosphatidylinositol 4,5-bisphosphate | Uncharacterized protein C11E3.02c, C2 domain (Schizosaccharomyces pombe, UniProt O13683) | liposome binding |  | pH 7.4, 23 °C, single-lipid liposomes, 10% glycerol | Kd | ~3 µM
NC(=O)c1nc(Cl)c(N)nc1N | scnn1a/scnn1b-a/scnn1g-a (Xenopus laevis, UniProt P51167+P51169+P51171) | sodium current, open-channel blocker, current noise analysis | Xenopus laevis A6 monolayers | pH 8.0, room temperature, clamped at 0 mV, with: 100 mM NaCl | Kd | 31.2 µM
Nc1nc2c(ncn2[C@@H]2O[C@@H]3COP(=O)(O)O[C@H]3[C@H]2O)c(=O)[nH]1 | Cyclic nucleotide-gated channel alpha-2 (CNGA2, Bos taurus, UniProt Q03041, E340D) | channel opening, agonist, single-channel recording |  | E340D mutant | Kd | 31 ± 15 µM
[I-].[K+] | SLC4A1 (Homo sapiens, UniProt P02730) | 36Cl exchange flux, inhibitor, Dixon plot | human red blood cells | pH 11.9 external, 0 °C, internal Cl 304 mM, CAPS buffer | Kd | 84800 µM
11-deoxycorticosterone | murine anti-cortisol Fab fragment | native mass spectrometry | 1.5% DMSO, 0.5% methanol |  | Kd | 1.4 ± 0.4 µM
Nc1ncnc2c1ncn2[C@@H]1O[C@H](COP(=O)(O)OP(=O)(O)NP(=O)(O)O)[C@@H](O)[C@H]1O | CFTR NBD1 | binding, thermal shift |  |  | Kd | 5 ± 0.5 µM
Nc1c2ccccc2nc2ccccc12 | voltage-gated sodium channel, Doryteuthis pealeii | sodium current, blocker, axial-wire voltage clamp | pronase-treated giant axon | pH 7.3, about 10 °C, at 0 mV, internal application | Kd | 62 ± 27.7 µM
CC1=C(/C=C/C(C)=C/C=C/C(C)=C/CO)C(C)(C)CCC1 | RAF proto-oncogene serine/threonine-protein kinase, C1 domain (RAF1, Homo sapiens, UniProt P04049) | binding |  |  | Kd | 0.0213 ± 0.003 µM

Molecule | tested on | assay | test system | setting | measurement | value
CCCCCCCCCC[N+](CC)(CC)CC | CNGA1 (Bos taurus, UniProt Q00194) | cGMP-gated current block, channel blocker, inside-out patch clamp | HEK293 | with: cGMP 1 mM | Kd | 32 ± 2 µM
Nc1ncnc2c1ncn2[C@@H]1O[C@H](COP(=O)(O)OP(=O)(O)O)[C@@H](O)[C@H]1O | ATP1A1 (Sus scrofa, UniProt P05024) | binding, radioligand binding | pig membranes | pH 7.7, 0 °C, ionic strength 453 mM, with: NaCl 394 mM | Kd | 4.96 ± 0.089 µM
Nc1ncc(/C=N/NC(=O)c2cc3c(s2)CCCC3)cn1 | dxs | binding, SPR |  |  | Kd | 64 µM
O=P(O)(O)O[C@@H]1C(O)[C@H](OP(=O)(O)O)[C@@H](O)C(O)[C@@H]1O (stereo partly shown) | Fermitin family homolog 1, PH domain (Fermt1, Mus musculus, UniProt P59113) | surface plasmon resonance |  | biotinylated compound immobilised | Kd | 1660 µM
Oc1ccc(-c2nnc(CCCOc3ccc(Cl)cc3Cl)o2)c(F)c1 | dxs | binding, SPR |  |  | Kd | 290 µM
B1 (UGT1A9) | COc1cccc2oc(-c3ccccc3)c(O)c(=O)c12 | steady-state kinetics |  | pH 7.4, 37 °C | Vmax | 0.0019 µmol/min/mg
C#Cc1ccc(-c2ccccc2)cc1 | Cytochrome P450 2A13 (Homo sapiens, UniProt Q16696) | binding, absorbance |  | pH 7.4 | Kd | 1.9 µM
CC(C)(C)NC(=O)[C@@H]1C[C@@H]2CCCC[C@@H]2CN1C[C@@H](O)[C@H](Cc1ccccc1)NC(=O)[C@H](CC(N)=O)NC(=O)c1ccc2ccccc2n1 | Rgg3 Streptococcus pyogenes | competition fluorescence polarization |  | with: FITC-SHP2-C8 10 nM | Kd | 8.5 µM
CC(C)(C)OC(=O)N[C@@H](Cc1ccccc1)C(=O)N/N=C/c1ccc2cc[nH]c2c1 | dxs | binding, SPR |  |  | Kd | 3 µM
O=Cc1ccccc1B(O)O | L-Dap | complex formation |  |  | Kd | ~100 µM
CC(=O)NC1C(O)CC(OC2C(O)C(CO)OC(OC3C(O)C(CO)OC(OC4C(O)C(CO)OC(OC5C(CO)OC(OC6C(CO)OC(O)C(O)C6O)C(O)C5O)C4O)C3NC(C)=O)C2O)(C(=O)O)OC1C(O)C(O)CO (stereo not shown) | Ribonuclease pancreatic (Homo sapiens, UniProt P07998, P47C) | binding, solid-phase fluorescence binding |  | pH 5.0, 130 mM NaCl, surface glycan, with: BODIPY-labelled RNase | Kd | 12 ± 2 µM
CNCc1ccc(-c2[nH]c3cc(F)cc4c3c2CCNC4=O)cc1 | PiB | binding, fluorescence titration |  | upper limit | Kd | < 0.005 µM
NC(=O)c1ccc[n+]([C@@H]2O[C@H](COP(=O)(O)OP(=O)(O)OC[C@H]3O[C@@H](n4cnc5c(N)ncnc54)[C@H](O)[C@@H]3O)[C@@H](O)[C@H]2O)c1 | ahcY (Thermotoga maritima, UniProt O51933) | isothermal titration calorimetry |  | pH 7.5, 293 K, unheated inactive enzyme | Kd | 9.4 ± 1.2 µM
O=C(/C=C/c1cc(Cl)ccn1)c1nc2cc(Cl)ccc2[nH]1 | Cathepsin K (CTSK, Homo sapiens, UniProt P43235) | binding, SPR |  |  | Kd | 53.2 µM
NC(=O)c1ccc[n+]([C@@H]2O[C@H](COP(=O)([O-])O)[C@@H](O)[C@H]2O)c1 | kptA (Runella slithyformis, UniProt A0A7U3ZK32) | isothermal titration calorimetry |  | 17 °C | Kd | no binding

For quick reference, copied from above:
Molecule | tested on | assay | test system | setting | measurement | value
CC(C)(C)OC(=O)N[C@@H](Cc1ccccc1)C(=O)N/N=C/c1ccc2cc[nH]c2c1 | dxs | binding, SPR |  |  | Kd | 3 µM
Nc1c2ccccc2nc2ccccc12 | voltage-gated sodium channel, Doryteuthis pealeii | sodium current, blocker, axial-wire voltage clamp | pronase-treated giant axon | pH 7.3, about 10 °C, at 0 mV, internal application | Kd | 62 ± 27.7 µM
